# Published values collected from several papers.
# Protocols differ between the studies behind these lines. ± marks the error that the study gave.
# Chain of UniProt P35579 (whole entry, looked up): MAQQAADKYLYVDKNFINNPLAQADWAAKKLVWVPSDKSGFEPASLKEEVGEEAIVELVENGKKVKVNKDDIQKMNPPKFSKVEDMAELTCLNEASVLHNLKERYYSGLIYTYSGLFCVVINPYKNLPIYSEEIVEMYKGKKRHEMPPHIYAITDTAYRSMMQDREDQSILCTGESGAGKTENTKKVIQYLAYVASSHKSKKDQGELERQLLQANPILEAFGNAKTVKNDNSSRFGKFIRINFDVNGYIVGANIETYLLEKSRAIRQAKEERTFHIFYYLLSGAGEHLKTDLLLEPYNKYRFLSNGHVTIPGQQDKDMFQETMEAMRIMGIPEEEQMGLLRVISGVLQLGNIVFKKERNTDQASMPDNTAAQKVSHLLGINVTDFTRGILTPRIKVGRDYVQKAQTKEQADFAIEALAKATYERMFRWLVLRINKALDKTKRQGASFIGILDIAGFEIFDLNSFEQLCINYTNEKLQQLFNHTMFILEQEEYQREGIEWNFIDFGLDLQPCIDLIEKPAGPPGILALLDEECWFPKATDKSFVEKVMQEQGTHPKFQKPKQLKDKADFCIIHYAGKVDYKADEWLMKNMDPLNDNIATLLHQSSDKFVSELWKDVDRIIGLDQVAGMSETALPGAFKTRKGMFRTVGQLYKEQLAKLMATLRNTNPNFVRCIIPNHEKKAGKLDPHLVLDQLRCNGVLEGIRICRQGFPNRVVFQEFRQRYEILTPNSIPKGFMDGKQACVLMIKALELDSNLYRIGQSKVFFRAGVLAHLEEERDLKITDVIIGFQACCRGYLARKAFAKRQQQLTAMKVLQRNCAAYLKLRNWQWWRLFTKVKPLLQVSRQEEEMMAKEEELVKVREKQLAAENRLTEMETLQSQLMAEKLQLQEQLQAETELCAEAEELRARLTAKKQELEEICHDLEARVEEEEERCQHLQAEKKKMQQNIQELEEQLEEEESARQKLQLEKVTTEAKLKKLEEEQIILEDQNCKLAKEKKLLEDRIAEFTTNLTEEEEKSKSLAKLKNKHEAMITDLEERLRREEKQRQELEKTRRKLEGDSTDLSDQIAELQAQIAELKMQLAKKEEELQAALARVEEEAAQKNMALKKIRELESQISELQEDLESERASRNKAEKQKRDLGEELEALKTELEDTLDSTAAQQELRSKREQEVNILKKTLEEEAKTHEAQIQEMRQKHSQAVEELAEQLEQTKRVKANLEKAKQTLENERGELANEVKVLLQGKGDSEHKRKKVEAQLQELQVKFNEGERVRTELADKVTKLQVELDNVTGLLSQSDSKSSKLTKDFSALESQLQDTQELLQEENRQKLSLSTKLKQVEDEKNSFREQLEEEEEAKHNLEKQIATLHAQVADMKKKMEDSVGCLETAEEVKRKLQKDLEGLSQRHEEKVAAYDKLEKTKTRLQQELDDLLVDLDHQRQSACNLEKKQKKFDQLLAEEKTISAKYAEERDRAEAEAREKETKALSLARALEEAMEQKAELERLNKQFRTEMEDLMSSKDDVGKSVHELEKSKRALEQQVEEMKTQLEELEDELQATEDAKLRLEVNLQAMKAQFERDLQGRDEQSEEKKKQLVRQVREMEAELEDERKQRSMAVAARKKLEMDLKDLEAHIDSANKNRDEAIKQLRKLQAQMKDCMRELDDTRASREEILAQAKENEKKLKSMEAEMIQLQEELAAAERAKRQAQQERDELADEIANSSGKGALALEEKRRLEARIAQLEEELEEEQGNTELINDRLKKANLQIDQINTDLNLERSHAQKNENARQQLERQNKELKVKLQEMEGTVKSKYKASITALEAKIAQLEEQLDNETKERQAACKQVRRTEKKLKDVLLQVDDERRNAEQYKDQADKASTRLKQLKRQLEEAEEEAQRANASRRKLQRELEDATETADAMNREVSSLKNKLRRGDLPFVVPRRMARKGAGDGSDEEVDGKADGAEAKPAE
Compound,target or system,assay,test system,setting,how to read,endpoint,result
CC(C)[C@H](NC(=O)c1ccccc1NC(=O)c1ccc(O)cc1)C(=O)N[C@H](CO)C(C)C,human coronavirus OC43,"viral replication, plaque reduction",MRC-5,6 days,,EC50,> 50 µM
CC[C@H](C)[C@@H]1NC(=O)[C@@H]2CCCN2C(=O)[C@H](CC(C)C)NC(=O)[C@H](CC(C)C)NC(=O)CNC(=O)[C@@H](NC(=O)[C@@H](NC(=O)[C@H](CC(=O)O)NC(=O)CNC(=O)[C@@H](NC(=O)[C@H](C)NC(=O)CNC(=O)[C@H](CCCCN)NC(=O)[C@H](CC(C)C)NC(=O)[C@H](CC(C)C)NC(=O)[C@H](CCCCN)NC(=O)CNC(=O)[C@@H](NC(=O)[C@@H](N)CC(C)C)C(C)C)C(C)C)C(C)C)CSSC[C@@H](C(=O)O)NC1=O,,"RNA-seq, refers to: Lrrc25","mouse, traumatic brain injury model, frontal cortex and hippocampus",dose not given,relative to: TBI alone,log2 fold change,-2.25
CC1(C)OB(c2ccc(NS(=O)(=O)c3cc(C(=O)Nc4ccc(F)c(F)c4)ccc3F)cc2)OC1(C)C,hepatitis B virus,"viral replication, qPCR, refers to: positive-strand HBV DNA","HepDES19, genotype D",3 days,,EC50,4.43 µM
[2H]C([2H])(c1cc(F)c(F)cc1F)n1c(=O)n(Cc2ncn(C)n2)c(=O)[nH]/c1=N\c1cc2cn(C)nc2cc1Cl,canine coronavirus,"viral replication, qRT-PCR",CRFK,,,EC50,~50 µM
COc1ccc2c(c1)[nH]c1c(C)nccc12,Trypanosoma brucei,cell growth,,,,EC50,> 3 µM
CC(C)[C@H](NC(=O)c1ccccc1NC(=O)c1ccccc1)C(=O)N[C@H](CO)C(C)C,human coronavirus OC43,"viral replication, plaque reduction",MRC-5,6 days,,EC50,> 50 µM
C[C@@H]1C[C@@H]([C@H](O)CC2CC(=O)NC(=O)C2)C(=O)[C@@H](C)C1,Mus musculus,"gene silencing, high-content imaging",LDR reporter GFP cells,"retest, mean of two runs",,EC50,5.01 µM
Cc1ccc(N(c2ccc(NC(=O)CN(C)c3ccccc3N3CCCC3=O)cc2)C(C)C)cc1,Plasmodium falciparum,"parasite growth, SYBR Green",Dd2 population A6 P534S,72 h,,EC50,0.75 µM
O=C(Nc1cc(F)c(F)c(F)c1)c1ccc(F)c(S(=O)(=O)NCc2ccccc2B(O)O)c1,hepatitis B virus,"viral replication, qPCR, refers to: positive-strand HBV DNA","HepDES19, genotype D",3 days,,EC50,> 5 µM
COc1ccc([C@@]23Oc4cc(OC)cc(OC)c4[C@@]24N=C(C)N[C@@]4(O)[C@H](C(=O)N(C)OC)[C@H]3c2ccccc2)cc1,Hepatitis E virus,viral replication,"HepG2 HEV-3 replicon, genotype 3","48 h, racemate",,EC50,0.001 µM
COc1cc2c3c(c1OC)-c1ccccc1C[C@H]3N(C)CC2,Toxoplasma gondii,parasite growth,"HFF, bradyzoite, glutamine-induced",,,EC50,25 µM
CC1(C)OB(c2ccc(CNS(=O)(=O)c3cc(C(=O)Nc4cc(F)c(F)c(F)c4)ccc3F)cc2)OC1(C)C,hepatitis B virus,"viral replication, qPCR, refers to: positive-strand HBV DNA","HepDES19, genotype D",3 days,,EC50,1.3 µM
Nc1ccn(C[C@@H](CO)OCP(=O)(O)O)c(=O)n1,human alphaherpesvirus 2,,"HEL, strain G",,,EC50,1 µM
CCNC(=O)[C@@H](NC(=O)c1ccccc1NC(=O)c1ccc(OC)cc1)C(C)C,human coronavirus OC43,"viral replication, plaque reduction",MRC-5,6 days,,EC50,> 50 µM
Cc1ccc([N+](=O)[O-])cc1S(=O)(=O)N(C)/N=C/c1cnc2ccc(Br)cn12,human coronavirus OC43,virus-induced cell killing,MRC-5,maximum over 10 doses,,maximum inhibition,0%
C[C@H]1CN(c2n[nH]c3nc(N[C@H]4CC[C@H](NS(=O)(=O)CCC(F)(F)F)CC4)ncc23)CCO1,"Myosin-9 (MYH9, Homo sapiens, UniProt P35579)","inhibitor, Kinobeads competition profiling",,0.032 µM,relative to: vehicle,relative abundance,0.88
CC1(C)OB(c2ccccc2NS(=O)(=O)c2cc(C(=O)Nc3cc(F)c(F)c(F)c3)ccc2F)OC1(C)C,hepatitis B virus,"viral replication, qPCR, refers to: positive-strand HBV DNA","HepDES19, genotype D",3 days,,EC50,> 5 µM
COCC(=O)N1CCC[C@H](C(=O)NCc2nc(-c3ccc(C#N)cc3)cs2)C1,Plasmodium falciparum,,Dd2 β5 S28L resistant,,,EC50,0.22 ± 0.043 µM
CCOC(=O)[C@@H](N)CCC(=O)N[C@@H](CSCc1ccccc1)C(=O)N[C@@H](C(=O)OCC)c1ccccc1.Cl,human coronavirus OC43,virus-induced cell killing,MRC-5,screen,,maximum inhibition,36.3%
C[C@H]1CCC/C=C/[C@@H]2C[C@H](O)C[C@H]2[C@H](O)/C=C/C(=O)O1,Toxoplasma gondii,bradyzoite growth,,"pH 8.2, alkaline-induced bradyzoites",,EC50,0.4 µM
O=C(N1CCC2(CC1)C[C@@H](CN1CCCCS1(=O)=O)CCO2)C1(c2ccccc2)CCCC1,echovirus 11,viral replication,,,,EC50,> 32 µM
O=C(Nc1cc(F)c(F)c(F)c1)c1ccc(F)c(S(=O)(=O)Nc2ccc(B(O)O)cc2)c1,hepatitis B virus,"viral replication, qPCR, refers to: positive-strand HBV DNA","HepDES19, genotype D",3 days,,EC50,3.53 µM
COc1ccc(NC(=O)N2CCCCN3[C@H](CN(C)C)[C@H](c4ccc(C#Cc5ccccc5)cc4)[C@@H]3C2)cc1,Toxoplasma gondii,bradyzoite growth,,"glutamine-induced bradyzoites, glucose-free medium",,EC50,0.08 µM
N#C[C@@]1(n2ccc(N)nc2=O)O[C@H](CO)[C@@H](O)[C@H]1O,hepatitis B virus,"viral replication, cell-based",,,,EC50,> 10 µM
O=C(Nc1cc(F)c(F)c(F)c1)c1ccc(F)c(S(=O)(=O)NCc2ccc(B(O)O)cc2)c1,hepatitis B virus,"viral replication, qPCR, refers to: positive-strand HBV DNA","HepDES19, genotype D",3 days,,EC50,1.17 µM
COC(=O)[C@@H]1[C@@H](c2ccccc2)[C@]2(c3ccc(OC)cc3)Oc3cc(OC)cc(OC)c3[C@@]23N=C(C)N[C@@]13O,Hepatitis E virus,viral replication,"HepG2 HEV-3 replicon, genotype 3","24 h, racemate",,EC50,0.002 µM
CC1(C)OB(c2cccc(NS(=O)(=O)c3cc(C(=O)Nc4ccc(F)c(F)c4)ccc3F)c2)OC1(C)C,hepatitis B virus,"viral replication, qPCR, refers to: positive-strand HBV DNA","HepDES19, genotype D",3 days,,EC50,5.07 µM
CN1CC[C@@]2(C)c3cc(OC(=O)Nc4ccccc4)ccc3N(C)[C@@H]12,Toxoplasma gondii,"parasite growth, luciferase reporter","HFF, tachyzoite",72 h,,EC50,30 µM

# A few entries again:
Compound,target or system,assay,test system,setting,how to read,endpoint,result
Nc1ccn(C[C@@H](CO)OCP(=O)(O)O)c(=O)n1,human alphaherpesvirus 2,,"HEL, strain G",,,EC50,1 µM
C[C@@H]1C[C@@H]([C@H](O)CC2CC(=O)NC(=O)C2)C(=O)[C@@H](C)C1,Mus musculus,"gene silencing, high-content imaging",LDR reporter GFP cells,"retest, mean of two runs",,EC50,5.01 µM
